Assay results of several laboratories.
Protocols differ between the studies behind these lines. ± marks the error that the study gave.

Compound	assay	test system	setting	scale	measurement	result
C=CC(=O)Nc1cc(Nc2nccc(-c3cn(C4CC4)c4ccccc34)n2)c(OC)cc1N(C)CCN(C)C		BALB/c nude mouse, LU0387 xenograft, blood	oral, 40 mg/kg		RDW-SD	24.4 ± 0.474 fL
N=C(N)c1ccc2cc(C#Cc3cccc(OC4CCCC4)c3)ccc2c1		octanol/buffer	pH 11, urokinase ligand set		logP	4.15
CCCCOC(=O)N1CCN(C(=O)[C@H](CP(=O)(O)O)NC(=O)c2cc(N3CC[C@H](OC)C3)nc(-c3ccccc3)n2)CC1		human	subcutaneous, 8 mg, 24 h post-dose	relative to: baseline	change in PR interval	-3.3 ± 10.8 ms
O=C([O-])CCCCCCCNC(=O)c1ccccc1O.[Na+]		healthy male and female subjects	without semaglutide, median		tmax	0.7 h
Cc1ccc(Sc2ccccc2N2CCNCC2)c(C)c1		healthy adult men	oral, 40 mg single dose, treatment-emergent adverse events		diarrhoea incidence	50%
Cc1cc(NC2CCN(C(=O)OC3CCN(C(=O)/C=C/CN(C)C)C3)CC2)n2ncc(C(C)C)c2n1 (stereo not drawn)	Phase I dose escalation CTCAE v4.0, measured: Asthenia	patients with advanced solid tumours	dose not given, all dose schedules any grade		patients with adverse event	13%
CC[C@H](C)/C=C/C(=O)N1CCC[C@H]1C(=O)N[C@@H](CCC1CCCCC1)C(=O)N[C@H](C(=O)NC(C)(C)C(=O)N[C@@H](CC(C)C)C(=O)N[C@@H](CC(C)C)C(=O)NC(C)(C)C(=O)NC(C)(C)C(=O)NCCC(=O)N[C@@H](C)CN(C)C)[C@H](O)C(C)C	circular dichroism	phosphate buffer	pH 7.4, 20 °C		alpha-helix content	38.4%
O=C(Nc1nc2cccc(-c3ccc(CN4CCS(=O)(=O)CC4)cc3)n2n1)C1CC1	measured: gingival bleeding	human rheumatoid arthritis patients	oral, 300 mg once daily, 4 weeks, regardless of relatedness		treatment-emergent adverse events	0%
Cc1cc(Nc2ccc(S(F)(F)(F)(F)F)cc2)n2nc(C(C)(F)F)nc2n1		Plasmodium vivax malaria patients	oral, 600 mg		adverse event Thrombocytopenia	0%
CC(C)n1c(Nc2cccnc2)nc2cnc(Nc3ccc(N4CCN(C)CC4)cc3)nc21	measured: eosinophil count increased	healthy male subjects	oral, 150 mg, study, together with: rifampin		subjects with adverse event	7.1%
CNC(=O)c1ccc(-c2cnc3ncc(Cc4ccc5ncccc5c4)n3n2)cc1F		Japanese patients	oral, 400 mg twice daily, any grade		Tremor patients	1%
NC(=O)N1c2ccccc2C=Cc2ccccc21	rotarod test	mouse, CCI neuropathic pain model	20 mg/kg		time to fall	1.61 ± 0.09 min
Cc1ccc([C@@H]2O[C@H](CO)[C@@H](O)[C@H](O)[C@H]2O)cc1Cc1ccc(-c2ccc(F)cc2)s1		Japanese type 2 diabetes patients	100 mg, day 16, 24 h urine collection	relative to: baseline	urinary potassium excretion change	0.447 mEq
O=C(O)CCC(=O)O.[2H]C([2H])([2H])Oc1cc(C)c2[nH]ccc2c1CN1CC[C@@H](C2CC2)C[C@H]1c1ccc(C(=O)O)cc1	LC-MS/MS, mean	human, plasma	100 mg, single dose, fasting		Vd/F	56.8 L
CCn1cc(C(=O)N2CCOCC2)c(=O)c2cc(NC3Cc4ccccc4C3)cnc21		human, fasted, plasma	oral, 600 mg single dose, tablet, arithmetic mean		Cmax	3410 ng/mL
CN[C@@H](C)C(=O)N[C@H]1CN(S(=O)(=O)c2cccc(S(=O)(=O)N3CC[C@H]4CC[C@@H](C(=O)NC(c5ccccc5)c5ccccc5)N4C(=O)[C@@H](NC(=O)[C@H](C)NC)C3)c2)CC[C@H]2CC[C@@H](C(=O)NC(c3ccccc3)c3ccccc3)N2C1=O	LC-MS/MS	human, advanced solid tumours, plasma	intravenous, 4 mg weekly, day 1		AUC(0-t)	80.9 ± 36.6 ng·h/mL
COc1cc(/C=C/C(=O)OC2C(O)CC(O)(C(=O)O)CC2O)ccc1O (stereo not drawn)		human, cerebrospinal fluid	concentration not given, mean		CSF concentration	1.8 nM
CCOc1c([C@H](C)n2nc(C)c3c(N)ncnc32)cc(Cl)c(F)c1[C@@H]1CNC(=O)C1		patients, monotherapy	oral, 15 mg once daily, cycle 1 day 1		Cmax geometric mean	0.766 µM
O=C1CC[C@H](N2Cc3cc(N4CCN(CC5CCN(c6ccc([C@@H]7c8ccc(O)cc8CC[C@@H]7c7ccccc7)cc6)CC5)CC4)ccc3C2=O)C(=O)N1		EpiIntestinal microtissues	40 µM, 3 h		intracellular concentration	7.2 µM

Compound	assay	test system	setting	scale	measurement	result
CC(C)(C)c1ccc(O)c(CN(Cc2cc(C(C)(C)C)ccc2O)C2CCC(NC(N)=O)CC2)c1 (stereo not drawn)		mouse brain	2000 ng/g, 3 months, -20 °C, long-term storage		recovery	100.8 ± 0.19%
Cc1nc(C)c(-c2ccnc(N)n2)s1		octanol/buffer, 40 mM buffer	pH 11		logP	1.59
CCN1/C(=C/C(C)=O)Sc2ccc(F)cc21		cynomolgus monkey	oral, 100 mg/kg, 0.5 h post-dose	relative to: pre-dose	mean blood pressure change	101 ± 6.4%
CN(C)C(=O)c1cc2cnc(Nc3ccc(-c4ccc5c(=O)cc(N6CCOCC6)oc5c4)cc3)nc2n1C1CCCC1		BALB/c mouse, liver	oral, 20 mg/kg, 2 h		concentration	3550 ± 2710 ng/g
Nc1nc(NC2CC2)c2ncn([C@H]3C=C[C@@H](CO)C3)c2n1		Tat+ transgenic mouse, plasma	subcutaneous osmotic pump, dose not given, 5 d		drug concentration	1520 ± 184 ng/mL
CC(C)(C(=O)N1CCOc2c(C#N)cncc2C1)C(F)F	measured: Palpitations	human	oral, 20 mg once daily, 14 days, multiple ascending dose		subjects with adverse event	12.5%
CC(=O)O[C@H]1C(=O)[C@@]2(C)[C@H]([C@H](OC(=O)c3ccccc3)[C@]3(O)C[C@H](OC(=O)[C@H](O)[C@@H](NC(=O)c4ccccc4)c4ccccc4)C(C)=C1C3(C)C)[C@]1(OC(C)=O)CO[C@@H]1C[C@@H]2O	measured: Diarrhoea	patients with advanced solid tumours	intravenous, dose not given, grade 1 and 2, possibly related to drug		adverse event incidence	30%
Cc1cc(Nc2ncnc3ccc(NC4=NC(C)(C)CO4)cc23)ccc1Oc1ccn2ncnc2c1		human, plasma	oral, 300 mg, day 1, single dose alone		AUC(0-inf), mean	2260 ng·h/mL
CC(C)C[C@H](NC(=O)[C@@H](Cc1c[nH]c2ccccc12)NC(=O)[C@H](Cc1ccc(O)cc1)NC(=O)[C@H](CO)NC(=O)[C@H](Cc1c[nH]c2ccccc12)NC(=O)[C@H](Cc1c[nH]cn1)NC(=O)[C@@H]1CCC(=O)N1)C(=O)N[C@@H](CCCNC(=N)N)C(=O)N1CCC[C@H]1C(=O)NCC(N)=O		Chinese CPP children	intramuscular, 22.5 mg, 12 months, day 1, month 6		patients, drug-related Constipation TEAEs	1.5%
COc1cc2c(Nc3ccc(Cl)c(Cl)c3F)ncnc2cc1OC[C@@H]1C[C@@H]2CN(C)C[C@@H]2C1		FVB wild-type mouse	oral, 70 mg/kg, 2 h		total brain concentration	720 ng/mL
CCc1cc(C(=O)NC)c2nccc(N3CCc4c(cc(Cn5ccnc5)cc4-c4cn(C)nc4C(F)(F)F)C3=O)c2c1		Sprague Dawley rat	oral, 100 mg/kg once daily, 7 days	relative to: vehicle	change in HCT	-0.22%
CC(Sc1nc2ccccc2[nH]1)C(=O)Nc1ccc(S(N)(=O)=O)cc1 (stereo not drawn)		octanol/buffer	pH 11, known kinase inactives set		logP	1.59
CCN(CC)CCNC(=O)c1c(C)[nH]c(/C=C2\C(=O)Nc3ccc(F)cc32)c1C		human, serum	50 mg maintenance dose, 24 h post-dose		serum concentration	52.9 ng/mL
COc1ccc([C@@H](O)c2cc(-c3ncnc4cc(N5CCOCC5)ccc34)c(F)cc2Cl)nn1		locally advanced rectal cancer patients	150 mg, together with: capecitabine and radiotherapy		diarrhoea TEAE incidence	50%
COc1ccc2c(c1)CN(C(=O)CCN1CCC(Cc3ccccc3)CC1)CC[S@@+]2[O-]	telemetry	conscious dog	intravenous, 8 mg/kg, 4 h		heart rate	81 ± 11 beats/min
CC[C@@](N)(c1cnc(C(F)(F)F)c(Cl)c1)c1c2ccn(C3CC3)c(=O)c2nn1C		rat Sprague-Dawley male, blood	intravenous, 1 mg/kg		CLint,u	8.19 mL/min/kg
Cc1nc(C)c(-c2ccnc(Nc3ccc(Cl)cc3)n2)s1		octanol/buffer, 40 mM buffer	pH 11		logP	4.23
Cn1cc([C@H]2C[C@H]3CSC(N)=N[C@@]3(c3ccc(F)cc3F)CO2)cn1		male 129/SVE mouse, CSF	subcutaneous, 50 mg/kg, 18 h		CSF concentration	16 nM
COc1ccccc1NC(=O)CSc1nnc(-c2ccc(F)cc2)n1C		octanol/buffer	pH 11, known kinase inactives set		logP	2.4

Compound	assay	test system	setting	scale	measurement	result
FC(F)(F)c1ccc(CNc2ccc(Cc3c[nH]c4ncc(Cl)cc34)cn2)cn1	measured: Fatigue	patients with advanced solid tumours, all cohorts	oral, 1000 mg/day, any grade		treatment-related adverse events	55%
COc1ccc2[nH]c([S+]([O-])Cc3ncc(C)c(OC)c3C)nc2c1 (stereo not drawn)		healthy Chinese volunteers, plasma	oral, 20 mg, enteric-coated tablets, CYP2C19 rapid metabolizers		AUC(0-inf)	602 ± 295 ng·h/mL
O=C(COc1ccc(Cl)cc1)NC12CC(c3nnc([C@H]4C[C@@H](OC(F)(F)F)C4)o3)(C1)C2		human both sexes	oral, 400 mg single dose		participants with TEAE	100%
N#Cc1ccc2c(c1)[C@H]1CCCN(C(=O)c3ccc4[nH]cnc4c3)[C@H]1C2		human	160 mg, day 15	relative to: baseline	ACTH level change	0.8 pmol/L
COc1cccc2c(N3CCC(CCP(=O)(O)O)CC3)ncnc12		mouse C57BL/6, female, CSF and brain	subcutaneous, 50 to 100 mg/kg		time to brain detection	≤ 5 min
CO[C@@H]1[C@H](OC(=O)N2CC(CCN3CCOCC3)C2)CC[C@]2(CO2)[C@H]1[C@@]1(C)O[C@@H]1CC=C(C)C		human, plasma	subcutaneous, 4.8 mg, single dose		time to non-quantifiable plasma level	≤ 12 h
Cc1cc(-c2nccc3c2ccn3CC(=O)Nc2ccc(-c3cnccn3)cn2)ccn1		human	5 mg once daily, multiple ascending dose		post-procedural erythema	12.5%
O=C(N[C@H](Cc1c[nH]c2ccccc12)C(=O)Nc1ccncc1)c1ccc(-c2ccc(F)c(Cl)c2)cc1F		Swiss Webster mouse, female, intestine	oral, 50 mg/kg, 8 h, 20% Kolliphor vehicle		concentration	52.6 µM
NC1(C(=O)N[C@@H](CCO)c2ccc(Cl)cc2)CCN(c2nc[nH]c3nccc2-3)CC1	LC-MS/MS, non-compartmental	human patients, plasma	160/320 mg cohort, cycle 0, geometric mean, together with: enzalutamide		Tmax	1.3 h
Cn1c(=O)oc2ccc(-c3ccc(C[C@@H](C#N)NC(=O)[C@@H]4CNCCCO4)cc3)cc21		human, normal renal function, plasma	oral, 25 mg single dose, mean		Vd/F	411 L
CNS(=O)(=O)Cc1ccc2[nH]cc(CCN(C)C)c2c1		octanol/buffer, 40 mM buffer	pH 11		logP	0.8
[O]=[Co].[O]=[Co][O][Co]=[O]		Crl:CD(SD) rat male, blood	oral, 73.4 mg Co/kg/day, 90 days		haematocrit	49.5%
NS(=O)(=O)c1cc(C(=O)O)c(NCc2ccco2)cc1Cl	measured: nervous system disorders	healthy men	oral, 8 days, treatment-emergent, crossover trial		subjects with adverse event	0%
CO[C@H]1C[C@@H]2CC[C@@H](C)[C@@](O)(O2)C(=O)C(=O)N2CCCC[C@H]2C(=O)O[C@H]([C@H](C)C[C@@H]2CC[C@@H](OC(=O)NCCOCCOCCOCCOCCOCCOCCOCCOCCC(=O)N3CCc4cc(Cn5nc(-c6ccc7oc(N)nc7c6)c6c(N)ncnc65)ccc4C3)[C@H](OC)C2)C[C@@H](O)[C@H](C)/C=C(\C)[C@@H](O)[C@@H](OC)C(=O)[C@H](C)C[C@H](C)/C=C/C=C/C=C/1C		human, plasma	intravenous, 8 mg, cycle 1 day 1, arithmetic mean		Cmax	263 ng/mL
CCO[C@H]1CCN(Cc2c(OC)cc(C)c3[nH]ccc23)[C@H](c2ccc(C(=O)O)cc2)C1		PNH patients, active haemolysis	oral, 200 mg, 8 weeks, treatment		incidence of nasopharyngitis	20%
CC1(C)CCC(CN2CCN(c3ccc(C(=O)NS(=O)(=O)c4ccc(NCC5CCOCC5)c([N+](=O)[O-])c4)c(Oc4cnc5[nH]ccc5c4)c3)CC2)=C(c2ccc(Cl)cc2)C1		human	400 mg		absolute neutrophil count	100 cells/µL
COc1ncc(-c2nc3c(n2C(C)C)[C@H](c2ccc(Cl)cc2)N(c2cc(Cl)cn(C)c2=O)C3=O)c(OC)n1		human patients, plasma	oral, 250 mg, high-dose arm, cycle 2 day 1		median Tmax	3 h
N[C@H]1C(O)O[C@H](CO)[C@@H](O)[C@@H]1O (stereo partly drawn)		aqueous solution	15 mM, together with: glucose		osmolality	12 mOsmol/kg
O=C(O)[C@H]1O[C@@H](Oc2cc(O)cc(/C=C/c3ccc(O)cc3)c2)[C@H](O)[C@@H](O)[C@@H]1O		human, cerebrospinal fluid	dose not given, mean		CSF concentration	not detected

Excerpt of the above:
Compound	assay	test system	setting	scale	measurement	result
CC(C)n1c(Nc2cccnc2)nc2cnc(Nc3ccc(N4CCN(C)CC4)cc3)nc21	measured: eosinophil count increased	healthy male subjects	oral, 150 mg, study, together with: rifampin		subjects with adverse event	7.1%
CNC(=O)c1ccc(-c2cnc3ncc(Cc4ccc5ncccc5c4)n3n2)cc1F		Japanese patients	oral, 400 mg twice daily, any grade		Tremor patients	1%
NC(=O)N1c2ccccc2C=Cc2ccccc21	rotarod test	mouse, CCI neuropathic pain model	20 mg/kg		time to fall	1.61 ± 0.09 min
Cc1ccc([C@@H]2O[C@H](CO)[C@@H](O)[C@H](O)[C@H]2O)cc1Cc1ccc(-c2ccc(F)cc2)s1		Japanese type 2 diabetes patients	100 mg, day 16, 24 h urine collection	relative to: baseline	urinary potassium excretion change	0.447 mEq
O=C(O)CCC(=O)O.[2H]C([2H])([2H])Oc1cc(C)c2[nH]ccc2c1CN1CC[C@@H](C2CC2)C[C@H]1c1ccc(C(=O)O)cc1	LC-MS/MS, mean	human, plasma	100 mg, single dose, fasting		Vd/F	56.8 L
